Measured values from different studies.
A part holds a random share of what one study measured.

Set 1
Target: RNA binding protein fox-1 homolog 2, RRM domain, GST-SBP tag (RBFOX2, Homo sapiens, UniProt O43251-10, residues 100-194)
Method: RNA Bind-n-Seq
Molecule type: RNA
Matrix: in vitro
Tested at: 365 nM
Setting: natural RNA segment, single round, ends assumed
Reference: no-protein control
Reading: higher = stronger binding
Construct (chain): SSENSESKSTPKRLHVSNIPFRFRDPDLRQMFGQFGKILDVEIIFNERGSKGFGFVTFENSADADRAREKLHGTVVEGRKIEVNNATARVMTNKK
| Sequence | RBNS enrichment (R) |
| --- | --- |
| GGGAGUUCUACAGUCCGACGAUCACGAUUACGGUCUUUAUGACCAAGAGUCUGAAAAUCUUUUUGUUAUGCUGUUUAGUAUUCGUUUGAUAUUGUUACUUUUCACCUGUUGAGCCCAAAUUCAGGAUUGGUUCUGGAAUUCUCGGGUGCCAA | 0.333 |
| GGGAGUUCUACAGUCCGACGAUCUCCCUCAUUCCAGCCUUUCUAUAUAAAUAGCUCUUUCUUGCUGUUUUAAUGUGGUGCACACUAUAGCCUCACAAACCUGUUAUUCCAGUGUAAUCUGCAGUGUCGUAACUUGGAAUUCUCGGGUGCCAA | 0.838 |
| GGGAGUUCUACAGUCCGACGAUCCCUGGCUUGUUGAAAGGUGGCUUUAGCUGUGUGCUGUGUACCUGCUUACGUGGCCUGCUGUCCUCUGUGUGAUUAGGAGGGUUUCUGCUGGCCCUGCAGCUUGCUUCCCUUGGAAUUCUCGGGUGCCAA | 0.511 |
| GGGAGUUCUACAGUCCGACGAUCCUUAUCUCGCUCUGGUGUUCACAGGCGGCAUGUGUUCCAGCCGACGAUCGCAUCUUGUGUCGCUGAGGCGGCGCACUGAGGGACCAGAUGGACUCCAGCCCUUCAGGAGGUGGAAUUCUCGGGUGCCAA | 1.03 |
| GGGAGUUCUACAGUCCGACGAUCGGGACUCACUGUCAGAGUUAGCGUGGAUUGCUGCUGCCGGGGCACUACCUCCUGGCUUCUCUCCCUGCUGACGUGGCUCUUGUCCUGGAGCAGAGCAGUGCGUUGUUGGGUGGAAUUCUCGGGUGCCAA | 0.3 |
| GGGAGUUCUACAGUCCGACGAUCAACAAUUACAGAAACAGUCAAGUGUUUUCCAAUGUGGUUGUCCGGUUUCUAUGGCCUUGCUGUGUACUUUCCCUCUUUUUGACAGUAAACUUCUGCCUAUGGCUUACAGUUGGAAUUCUCGGGUGCCAA | 0.369 |
| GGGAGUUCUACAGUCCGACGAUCCCUGGGGACUGCUGCUGUCCUGCCCUUGUAAGCCAUGGCUGAUCACUUUUGGUCAAUAUGUCAAAAUUCGGGGUCCACGCCAGGCUUGGGGGGCUUGGGAGUGUUUGUCAUGGAAUUCUCGGGUGCCAA | 0.443 |
| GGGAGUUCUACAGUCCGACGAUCCUCCUAAGUUCCAGAGGCCCCACUGUUCCAGUUUCAAGCCUUCAUUUUGGAGUCUGUUUGGGAACUUUUAAGACUUCAAAGCAAAGUUAGCUACCAGCAAUUUCUGUAAAUGGAAUUCUCGGGUGCCAA | 0.302 |
| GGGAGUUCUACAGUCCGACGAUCCUUGAACUCUGGGGCUUUAAUUCCACUGUUUAAUUUUCAGGUACCACAGCAGCAAAGCACAGAGUGUGACCUUUUUCAUGUCUGAGCUGAUUCUGUUUGCUCCACGUGCCUGGAAUUCUCGGGUGCCAA | 0.241 |

Set 2
Target: Histone acetyltransferase KAT6A, winged helix 2, GST fusion (KAT6A, Homo sapiens, UniProt Q92794, residues 85-181)
Method: protein binding microarray
Molecule type: double-stranded DNA, one strand shown
Matrix: in vitro
Tested at: not given
Setting: 8-mer, flanks averaged, mean of 2 arrays, mostly near background
Reference: not given
Reading: higher = stronger binding
Target sequence (chain): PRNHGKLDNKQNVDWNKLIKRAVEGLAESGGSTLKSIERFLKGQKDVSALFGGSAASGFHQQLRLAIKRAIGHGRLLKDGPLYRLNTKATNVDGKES
| Sequence | E-score |
| --- | --- |
| GATCGTGC | 0.0395 |
| CATTTCCG | -0.0713 |
| AATAATAG | -0.116 |
| AAAGGCAA | 0.124 |
| CCTCGAAC | -0.0362 |
| ACTCCACA | -0.00798 |
| CTACTAAA | 0.00359 |
| GCTCGCCC | 0.189 |
| AGAATGAT | -0.183 |
| TAGAGCTA | -0.139 |
| GCATTCCA | -0.0255 |
| AGCGCGAA | 0.209 |
| CACGAATA | -0.000425 |
| AAAGAGAT | -0.0828 |
| GTACCGCA | 0.223 |
| GCGCAAGA | 0.106 |
| ACTATCGG | -0.0339 |
| CCCCAGGG | 0.0495 |
| AAGAAAAG | -0.0451 |
| GTTGTCGA | -0.0933 |
| ACGGTGAT | -0.0645 |
| AAAAAACG | -0.0205 |
| GCCCAGGA | 0.0641 |
| CGCCGCTA | 0.203 |
| CGTATCTC | -0.136 |

Set 3
Target: Hepatocyte nuclear factor 3-alpha (Foxa1, Mus musculus, UniProt P35582, residues 1-468, full length assumed)
UniProt P35582, sequence (whole entry, looked up): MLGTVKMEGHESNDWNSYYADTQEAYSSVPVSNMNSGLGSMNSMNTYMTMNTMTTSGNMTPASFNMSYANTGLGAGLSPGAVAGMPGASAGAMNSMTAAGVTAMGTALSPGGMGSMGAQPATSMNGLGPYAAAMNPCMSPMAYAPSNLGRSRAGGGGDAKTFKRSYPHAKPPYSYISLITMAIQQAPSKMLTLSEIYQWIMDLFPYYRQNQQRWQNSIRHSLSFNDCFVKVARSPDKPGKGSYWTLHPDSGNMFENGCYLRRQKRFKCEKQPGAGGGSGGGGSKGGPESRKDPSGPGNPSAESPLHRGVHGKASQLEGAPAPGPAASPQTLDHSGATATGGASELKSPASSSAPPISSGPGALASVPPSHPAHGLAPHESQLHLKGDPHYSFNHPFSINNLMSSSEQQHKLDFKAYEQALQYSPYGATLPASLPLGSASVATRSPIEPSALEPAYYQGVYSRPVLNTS
Method: EMSA with sequencing
Molecule type: double-stranded DNA, one strand shown
Matrix: in vitro
Tested at: 10 and 20 nM
Setting: whole designed probe, mean of two concentrations, ends assumed
Reference: negative control set to 0
Reading: higher = stronger binding
| Sequence | normalised bound fraction [ratio] |
| --- | --- |
| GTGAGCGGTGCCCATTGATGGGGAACTACTTCTTTCCTTTAACATATGGCATTTGCTTAACCTCTTGGAGAGTTGTGGTTTTCTGACCCTGGAGTTCTGATGGGAAAGATAATGAGAAGTGTTTACTTAGCATCTAGGCCAGCAAGCTAAGAAAAACATTGTGCCATGCTAGTATTGACAAGGTGACAGAGAGCCCACACTTGCCTCACATGTTGGCCATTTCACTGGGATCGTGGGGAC | 0.409 |
| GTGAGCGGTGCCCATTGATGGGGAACATACAGGTTTTATAACATATGTAGTTAAGGTTTCTAAAGTGAGATTATGTCTCAACTAACTATAACTGAAATAGAAGAGTGTATCTATTCCAATGTAATCTAGATGACTGATAATGAGAAAAATGATCCTTATAAAGAATAGCAAATCATGATCCTGAGAGAGTAAGTATCAAAGCTGATGGGAGGATGCTATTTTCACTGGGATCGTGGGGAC | -0.0514 |
| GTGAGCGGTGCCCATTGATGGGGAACATCTTCCCCCTCTTCCTTGCCCCACCAGCTCACCTACGGGGGTTATTTGCACAAAGGAAAATAAATAAAGCCGGCATTCGTTAACCCTCTTCTGGCGCAAACTGCTGTTTGCTCTGCATCTAACATGGTCCTTACGCGAGGCGTGGCTCCGGGAGAGCAAAGCACCGTGTCAGGCGCATGATCCGGGCTCGCCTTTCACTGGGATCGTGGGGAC | 0.391 |
| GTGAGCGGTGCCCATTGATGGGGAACGCCTAAACTTTACTTCTCCCAAACCACTTTCTTCATGCATTCAAAACTGGACTTGTTCCACTAAGTCTGCATCTGGTACAGAGACTTCTTGATGTTTACTTAGGCAGTGGCCCATAAGAGTGCTCATTGAAACACCAATCATCATTCATTCATACTTCAATAAATAACTTGTATGGAGAAAAGAGGCTGGGCATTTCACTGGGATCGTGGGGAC | 0.455 |
| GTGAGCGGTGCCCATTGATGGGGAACATCTTCCCCCTCTTCCTTGCCCCACCAGCTCACCTTCCCGGGTTATTTGCAGATAGGAAAATAAATAAAGCCGGCATTCGTTAACGCAGTTCTGGCGCAAACTGCTGTTTGCTCTGCATCTAACATGGTCCTTACGCGAGGCGTGGCTCCGGGAGAGCAAAGCACCGTGTCAGGCGCATGATCCGGGCTCGCCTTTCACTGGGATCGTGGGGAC | 0.357 |
| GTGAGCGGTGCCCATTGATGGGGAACCTTCCCACAGCCGACCTCCTCCGCCTGTCCCTCCCGCCACCCCGCCTGTCCCCCGCCTTTCCAGCAGCCTCCAAGTGGCAGGCTGGGTGCTGTGTCATTTAGGGTGTGTGCCCTGCCAGGTGCACGGGGCGGGTCGGGAACCGGTTACCTGGCGGGCGGGCGAGGCGCACCACCTGGCTCGTGCCTCACCGCGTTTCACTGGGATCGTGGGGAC | -0.0831 |

Set 4
Target: RING finger protein unkempt homolog, zinc fingers 1-6, GST-SBP tag (UNK, Homo sapiens, UniProt Q9C0B0, residues 30-357)
Method: RNA Bind-n-Seq
Molecule type: RNA
Matrix: in vitro
Tested at: not given
Setting: RNA with constant flanks, ends assumed
Reference: input RNA pool
Reading: higher = stronger binding
Target sequence (chain): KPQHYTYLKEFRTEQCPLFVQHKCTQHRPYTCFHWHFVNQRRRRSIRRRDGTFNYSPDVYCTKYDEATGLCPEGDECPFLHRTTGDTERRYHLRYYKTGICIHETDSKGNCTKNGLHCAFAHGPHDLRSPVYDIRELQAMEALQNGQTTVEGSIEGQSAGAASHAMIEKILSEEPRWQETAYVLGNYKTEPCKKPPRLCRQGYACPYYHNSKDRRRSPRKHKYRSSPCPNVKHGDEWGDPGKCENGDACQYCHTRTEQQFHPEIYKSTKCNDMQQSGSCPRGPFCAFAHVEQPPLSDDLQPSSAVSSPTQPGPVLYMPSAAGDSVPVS
| Sequence | bound/input enrichment |
| --- | --- |
| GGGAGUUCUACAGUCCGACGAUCGAUGAAUUGAUGACCCUGGCUCAUAAGCACAUUGUCAAGACUGUGGAUUUCACACAGGACCGCAAUUACCUGCUAACUGGGGGACAGGAUAAACUGCUGCGCAUAUAUGACUUGAACAAACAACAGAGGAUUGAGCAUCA | 0.246 ratio |
| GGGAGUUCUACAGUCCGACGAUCUUGGAAGGGCUUCACACCAAGCUGGGGAACAUCAAGACCUUAAACCUGGCAGGCAACCUCCCCGAGAGUCUGAGUGGCCUGCACAAGCUCUACUCACUGGUCAACCUGGAUCUCCGGGACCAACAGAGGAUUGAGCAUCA | 0.121 ratio |
| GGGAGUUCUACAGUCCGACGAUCGGGGCUGCUGAGAUAUCCUGUGCCCUGGCAGUUAGCCAAGAGGCGGAUAAGUGCCCCACCUCCGAACAGUAUGCCAUGAGAGCGUUUGCCGACGCACUGGAGGUCAUCCCCAUGGCCCUCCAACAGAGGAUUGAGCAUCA | 0.0907 ratio |
| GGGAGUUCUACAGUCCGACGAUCUAGGAAGCAAAUGUCUAUUUCCAAAGCAAUGAGCUUGUUGUGACUGUGAUUUUAUUCUUCUACCGUAUUUUUUUCCUCAUUUUAACUGAGAGGAGAAAAUAAUACUCUUUUGCAAUAUCCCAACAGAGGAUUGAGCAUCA | 0.068 ratio |
| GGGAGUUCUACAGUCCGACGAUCCAAUGCGUAUGAGUCUUUGACAUCAUGAUGUACAUCCGGCAAAGAAAAGAGACAAAACCCACCGAAGUUUCUGAGGAUUUUCCAUCACCAAAAGAAGAUGUGAAGUUGGAAAAGAAAUUGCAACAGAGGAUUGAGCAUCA | 0.233 ratio |
| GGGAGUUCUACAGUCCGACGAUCUGCCUCUCAUUCAAUCCCUACAGCGAAUUUAUUCUAGCCACCGGCUCUGCGGAUAAGACCGCCGCUUUAUGGGAUCUGCGUAACUUAAAAUUAAAACUCCAUACCUUCGAAUCUCAUAAACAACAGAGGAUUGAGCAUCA | 0.346 ratio |
| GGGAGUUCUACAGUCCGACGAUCUUUUUGGGGAUUGCUUACAUCGCUGUUGGAUCCAUCUCCUUCCUUCUGGGAGUUGUACUGCCCGUAAUUAAUCAUAAAUAUAGAAACAGUAGUAAUACAGCUGACAUUACCAUUUAAUUUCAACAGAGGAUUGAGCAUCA | 5 ratio |
| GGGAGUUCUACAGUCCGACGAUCGGCUGGGAAACUUCAAAGCCUUCCCAGUCCCCAGCACCUGCCUUUCUCACUACUUCUCUGGAGAUGGCCGGAGAGUUUCCUAGGUCUUUCCAGGGCAGCAUGUGAUUCAUUUGGGGAUGGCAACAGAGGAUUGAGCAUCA | 0.127 ratio |
| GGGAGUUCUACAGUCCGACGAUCUUCUAGUGAAUCUGUGAUAUUGGAAAUUAUUAUUAUGGACAGGGUCAUCCCAUGAAGCCUCACCGAAUCCGCAUGACCCAUAACUUGCUGUUAAAUUAUGGCUUAUACAGAAAAAUGGAACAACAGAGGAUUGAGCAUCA | 0.587 ratio |
| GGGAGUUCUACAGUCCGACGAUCUUAGGAGAAGAUUGCAGAUGAUAGAAUGUCCUAUCCGCCCAUCCCCUGCUUUGCAGCUCAAACCGUUACUCUAAGCUUUGGGUAUUCUACAAAGUUUUCUUAAUUCUUGGAGCAGAGUAUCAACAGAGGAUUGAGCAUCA | 0.198 ratio |
| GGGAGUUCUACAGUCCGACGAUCGGAGAAUGAAUCCUUUGGAUACUUUCAAGGACAUUCAAAUGUGAAAAUGAAUUUUUUACAACCCGAAGUAUUUAUAAUAAAAGACCAAACUUAUUUUUGUAAAUGAACCCAUAUGCUUUACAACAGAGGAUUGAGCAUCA | 0.267 ratio |

A few entries again (set 2):
| Sequence | E-score |
| --- | --- |
| GCCCAGGA | 0.0641 |
| CACGAATA | -0.000425 |
| CATTTCCG | -0.0713 |
